# Measured values from different studies.
# Lines come from different studies, so protocols differ. Values joined by “and” are separate records of one study, mostly repeats; a detail may differ. ± gives the spread as reported.
# GLP1R: Glucagon-like peptide 1 receptor (GLP1R, Homo sapiens, UniProt P43220)
# T1: ssDNA, aptamer; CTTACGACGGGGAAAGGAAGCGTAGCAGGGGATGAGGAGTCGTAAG
# Chain of UniProt Q16774 (whole entry, looked up): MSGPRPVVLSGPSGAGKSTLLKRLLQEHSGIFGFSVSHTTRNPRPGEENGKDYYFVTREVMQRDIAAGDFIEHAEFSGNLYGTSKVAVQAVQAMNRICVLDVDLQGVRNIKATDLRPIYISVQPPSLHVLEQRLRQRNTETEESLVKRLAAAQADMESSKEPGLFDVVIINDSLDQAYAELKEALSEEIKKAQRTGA
# Chain of UniProt P23204 (whole entry, unmodified, looked up): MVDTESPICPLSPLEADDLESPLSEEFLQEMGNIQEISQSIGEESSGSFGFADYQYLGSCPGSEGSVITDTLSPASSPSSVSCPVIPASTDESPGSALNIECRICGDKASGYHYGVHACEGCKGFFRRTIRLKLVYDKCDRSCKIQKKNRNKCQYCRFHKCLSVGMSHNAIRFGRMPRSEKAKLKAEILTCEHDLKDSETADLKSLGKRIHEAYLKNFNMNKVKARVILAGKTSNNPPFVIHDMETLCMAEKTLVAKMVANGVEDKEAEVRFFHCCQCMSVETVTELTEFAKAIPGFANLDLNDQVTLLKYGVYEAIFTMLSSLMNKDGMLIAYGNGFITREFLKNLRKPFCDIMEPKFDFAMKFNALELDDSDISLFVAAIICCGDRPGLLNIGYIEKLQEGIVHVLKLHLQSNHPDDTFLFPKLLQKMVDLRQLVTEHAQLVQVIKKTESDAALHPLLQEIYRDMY
# Chain of UniProt Q8WUM0 (whole entry, looked up): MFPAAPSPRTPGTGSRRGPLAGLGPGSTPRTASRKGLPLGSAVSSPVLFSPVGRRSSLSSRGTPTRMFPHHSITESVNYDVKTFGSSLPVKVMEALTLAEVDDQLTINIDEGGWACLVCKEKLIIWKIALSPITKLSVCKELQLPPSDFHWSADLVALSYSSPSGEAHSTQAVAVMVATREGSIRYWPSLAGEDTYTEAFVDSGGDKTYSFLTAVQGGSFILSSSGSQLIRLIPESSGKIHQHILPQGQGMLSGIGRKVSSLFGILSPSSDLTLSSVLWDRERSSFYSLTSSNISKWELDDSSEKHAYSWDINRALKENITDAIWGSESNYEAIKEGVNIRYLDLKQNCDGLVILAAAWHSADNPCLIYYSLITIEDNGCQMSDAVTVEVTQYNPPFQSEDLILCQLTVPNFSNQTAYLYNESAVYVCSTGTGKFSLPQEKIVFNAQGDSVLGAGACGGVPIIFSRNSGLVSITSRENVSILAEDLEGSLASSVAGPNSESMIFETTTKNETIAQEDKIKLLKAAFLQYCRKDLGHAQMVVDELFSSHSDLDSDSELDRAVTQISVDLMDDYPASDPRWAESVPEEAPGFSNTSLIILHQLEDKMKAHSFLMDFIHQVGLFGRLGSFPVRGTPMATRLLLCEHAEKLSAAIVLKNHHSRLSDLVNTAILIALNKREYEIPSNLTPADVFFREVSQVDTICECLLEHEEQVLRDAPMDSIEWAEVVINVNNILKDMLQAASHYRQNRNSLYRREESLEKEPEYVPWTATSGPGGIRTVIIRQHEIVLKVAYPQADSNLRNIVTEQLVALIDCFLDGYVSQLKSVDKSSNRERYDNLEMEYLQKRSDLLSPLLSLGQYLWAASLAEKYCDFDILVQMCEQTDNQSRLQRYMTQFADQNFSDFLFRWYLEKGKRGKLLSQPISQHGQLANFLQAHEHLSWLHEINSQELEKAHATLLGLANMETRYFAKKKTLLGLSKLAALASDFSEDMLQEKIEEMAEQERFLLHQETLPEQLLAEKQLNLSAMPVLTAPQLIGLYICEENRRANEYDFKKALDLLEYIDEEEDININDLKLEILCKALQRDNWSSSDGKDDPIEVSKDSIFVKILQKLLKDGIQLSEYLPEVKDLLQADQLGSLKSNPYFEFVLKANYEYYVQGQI
# Chain of UniProt Q13224 (whole entry, unmodified, looked up): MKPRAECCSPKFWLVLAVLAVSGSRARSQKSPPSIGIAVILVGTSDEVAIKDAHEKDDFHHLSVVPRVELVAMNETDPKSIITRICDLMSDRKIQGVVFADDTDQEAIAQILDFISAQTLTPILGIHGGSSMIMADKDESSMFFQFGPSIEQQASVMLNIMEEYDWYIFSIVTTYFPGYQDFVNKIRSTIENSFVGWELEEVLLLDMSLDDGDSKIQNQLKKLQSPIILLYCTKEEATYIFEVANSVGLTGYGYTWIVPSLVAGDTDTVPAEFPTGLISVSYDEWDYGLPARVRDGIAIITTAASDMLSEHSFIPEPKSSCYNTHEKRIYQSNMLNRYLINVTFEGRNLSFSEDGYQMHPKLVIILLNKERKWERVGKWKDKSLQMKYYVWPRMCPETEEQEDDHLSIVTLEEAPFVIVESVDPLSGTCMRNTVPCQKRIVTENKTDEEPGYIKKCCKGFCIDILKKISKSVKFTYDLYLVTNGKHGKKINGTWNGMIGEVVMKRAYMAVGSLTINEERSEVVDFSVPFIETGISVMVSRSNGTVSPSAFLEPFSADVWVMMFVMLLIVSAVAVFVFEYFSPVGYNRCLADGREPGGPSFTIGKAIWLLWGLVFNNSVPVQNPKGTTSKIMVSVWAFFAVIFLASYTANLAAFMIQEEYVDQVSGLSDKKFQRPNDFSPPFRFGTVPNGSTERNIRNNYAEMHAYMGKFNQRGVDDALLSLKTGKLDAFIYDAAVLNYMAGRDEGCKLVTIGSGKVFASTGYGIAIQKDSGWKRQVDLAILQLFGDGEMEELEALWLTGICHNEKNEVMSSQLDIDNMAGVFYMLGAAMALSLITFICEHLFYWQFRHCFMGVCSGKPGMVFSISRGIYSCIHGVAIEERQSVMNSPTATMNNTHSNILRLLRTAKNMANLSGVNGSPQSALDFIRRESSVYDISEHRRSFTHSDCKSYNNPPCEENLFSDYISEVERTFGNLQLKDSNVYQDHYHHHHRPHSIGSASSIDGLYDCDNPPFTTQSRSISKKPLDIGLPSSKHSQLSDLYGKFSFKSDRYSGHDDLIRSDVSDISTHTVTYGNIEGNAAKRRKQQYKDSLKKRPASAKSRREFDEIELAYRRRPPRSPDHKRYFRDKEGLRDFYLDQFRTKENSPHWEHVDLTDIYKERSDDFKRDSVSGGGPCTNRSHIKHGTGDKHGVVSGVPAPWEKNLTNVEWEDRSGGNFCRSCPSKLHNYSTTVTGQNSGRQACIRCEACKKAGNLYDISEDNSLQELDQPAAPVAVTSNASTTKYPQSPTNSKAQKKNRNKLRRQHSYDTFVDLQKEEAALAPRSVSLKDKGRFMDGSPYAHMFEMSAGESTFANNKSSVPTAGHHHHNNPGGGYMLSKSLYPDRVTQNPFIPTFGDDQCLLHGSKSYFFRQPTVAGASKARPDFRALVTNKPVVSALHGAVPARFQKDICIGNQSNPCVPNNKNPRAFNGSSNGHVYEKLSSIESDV
# Chain of UniProt Q13263 (whole entry, looked up): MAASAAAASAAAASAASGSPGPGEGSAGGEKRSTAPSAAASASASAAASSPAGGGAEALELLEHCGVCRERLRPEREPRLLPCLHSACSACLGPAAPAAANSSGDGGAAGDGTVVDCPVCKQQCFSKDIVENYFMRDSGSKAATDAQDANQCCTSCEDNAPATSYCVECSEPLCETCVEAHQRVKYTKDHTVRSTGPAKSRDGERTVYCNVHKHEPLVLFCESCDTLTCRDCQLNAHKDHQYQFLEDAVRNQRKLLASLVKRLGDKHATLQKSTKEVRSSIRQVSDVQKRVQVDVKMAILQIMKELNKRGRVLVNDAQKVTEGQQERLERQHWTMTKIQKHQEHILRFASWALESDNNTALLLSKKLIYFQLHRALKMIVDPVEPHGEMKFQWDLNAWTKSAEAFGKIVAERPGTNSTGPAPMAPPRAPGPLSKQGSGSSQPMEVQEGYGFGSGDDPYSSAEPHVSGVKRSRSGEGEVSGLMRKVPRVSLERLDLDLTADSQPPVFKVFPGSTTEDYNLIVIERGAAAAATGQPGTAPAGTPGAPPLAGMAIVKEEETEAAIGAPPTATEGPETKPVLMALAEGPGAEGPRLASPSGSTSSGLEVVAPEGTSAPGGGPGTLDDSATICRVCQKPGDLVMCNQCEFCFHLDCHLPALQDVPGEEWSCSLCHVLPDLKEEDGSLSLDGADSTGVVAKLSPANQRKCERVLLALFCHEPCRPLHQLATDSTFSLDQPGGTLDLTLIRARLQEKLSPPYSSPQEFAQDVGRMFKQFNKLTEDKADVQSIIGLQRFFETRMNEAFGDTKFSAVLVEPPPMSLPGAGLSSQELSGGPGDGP
# Chain of UniProt P03146 (whole entry, looked up): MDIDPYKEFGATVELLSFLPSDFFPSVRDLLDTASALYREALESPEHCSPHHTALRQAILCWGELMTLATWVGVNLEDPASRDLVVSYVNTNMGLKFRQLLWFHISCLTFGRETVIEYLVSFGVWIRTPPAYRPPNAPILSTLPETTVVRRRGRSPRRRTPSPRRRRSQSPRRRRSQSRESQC
# Chain of UniProt P46091 (whole entry, looked up): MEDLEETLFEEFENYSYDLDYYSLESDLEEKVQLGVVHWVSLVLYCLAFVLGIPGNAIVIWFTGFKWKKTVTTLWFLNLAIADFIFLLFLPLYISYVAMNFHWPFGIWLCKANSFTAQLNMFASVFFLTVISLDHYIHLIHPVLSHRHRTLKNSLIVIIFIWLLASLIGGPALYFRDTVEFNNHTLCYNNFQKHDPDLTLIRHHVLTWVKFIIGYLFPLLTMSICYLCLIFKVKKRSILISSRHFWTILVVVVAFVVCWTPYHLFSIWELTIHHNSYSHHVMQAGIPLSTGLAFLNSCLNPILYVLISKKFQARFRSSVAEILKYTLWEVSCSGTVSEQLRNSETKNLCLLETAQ
SMILES,tested on,assay,test system,setting,how to read,quantity,result
CC[C@H](C)[C@H](NC(=O)[C@H](Cc1ccccc1)NC(=O)[C@H](CCC(=O)O)NC(=O)[C@H](CCCNC(=N)N)NC(=O)[C@H](C)NC(=O)[C@H](C)NC(=O)[C@H](CCC(N)=O)NC(=O)[C@H](CCC(=O)O)NC(=O)[C@H](CCC(=O)O)NC(=O)[C@H](CC(C)C)NC(=O)[C@H](Cc1ccc(O)cc1)NC(=O)[C@H](CO)NC(=O)[C@H](CO)NC(=O)[C@@H](NC(=O)[C@H](CC(=O)O)NC(=O)[C@H](CO)NC(=O)[C@@H](NC(=O)[C@H](Cc1ccccc1)NC(=O)[C@@H](NC(=O)CNC(=O)[C@H](CCC(=O)O)NC(=O)[C@H](C)NC(=O)CCc1cnc[nH]1)[C@@H](C)O)[C@@H](C)O)C(C)C)C(=O)N[C@@H](C)C(=O)N[C@@H](Cc1c[nH]c2ccccc12)C(=O)N[C@@H](CC(C)C)C(=O)N[C@H](C(=O)N[C@@H](CCCCNc1c(NCCCCCN(O)C(=O)CCC(=O)NCCCCCN(O)C(=O)CCC(=O)NCCCCCN(O)C(C)=O)c(=O)c1=O)C(=O)NCC(=O)N[C@@H](CCCNC(=N)N)C(=O)N[C@@H](CCCCNc1c(NCCCCCN(O)C(=O)CCC(=O)NCCCCCN(O)C(=O)CCC(=O)NCCCCCN(O)C(C)=O)c(=O)c1=O)C(=O)NCC(=O)NCC(=O)N[C@@H](CO)C(=O)N[C@@H](CCCCNC(=O)COCCOCCNC(=O)COCCOCCNC(=O)CC[C@H](NC(=O)CCCCCCCCCCCCCCCCC(=O)O)C(=O)O)C(=O)O)C(C)C,GLP1R,"agonist, CRE luciferase reporter",BHK cells,"Zr-loaded DFO conjugate, together with: 1% HSA",reference: parent peptide,fold potency loss,2
O=C(COP(=O)(O)O)[C@@H](O)[C@H](O)[C@H](O)COP(=O)(O)O,"Nuclear pore complex protein Nup133 (NUP133, Homo sapiens, UniProt Q8WUM0)","thermal proteome profiling, measured: NUP133",HepG2 cell lysate,"concentration not given, 57 over 37 °C, mean",reference: compound over control,thermal stability ratio,0.589
CCNC(=O)/C=C/c1cccc(Br)c1,"SLC6A19 (Homo sapiens, UniProt Q695T7)","inhibitor, FLIPR membrane potential",CHO-BC cells,"100 µM, unit not given",reference: no inhibitor,remaining transport activity,0.0295
[N-]=[N+]=NCC(=O)N[C@H]1[C@H]([C@H](O)[C@H](O)CO)O[C@@](O[C@H]2[C@@H](O)[C@@H](CO)O[C@@H](Oc3ccc([N+](=O)[O-])cc3)[C@@H]2O)(C(=O)O)C[C@@H]1O,"Sialidase-2 (Homo sapiens, UniProt Q9Y3R4)",substrate,,"0.3 mM, 30 min, pH 5.0, 37 °C",,sialic acid release,83%
CC[C@H](C)[C@H](NC(=O)[C@H](Cc1ccccc1)NC(=O)[C@H](CCC(=O)O)NC(=O)[C@H](CCCNC(=N)N)NC(=O)[C@H](C)NC(=O)[C@H](C)NC(=O)[C@H](CCC(N)=O)NC(=O)[C@H](CCC(=O)O)NC(=O)[C@H](CCC(=O)O)NC(=O)[C@H](CC(C)C)NC(=O)[C@H](Cc1ccc(O)cc1)NC(=O)[C@H](CO)NC(=O)[C@H](CO)NC(=O)[C@@H](NC(=O)[C@H](CC(=O)O)NC(=O)[C@H](CO)NC(=O)[C@@H](NC(=O)[C@H](Cc1ccccc1)NC(=O)[C@@H](NC(=O)CNC(=O)[C@H](CCC(=O)O)NC(=O)[C@H](C)NC(=O)CCc1cnc[nH]1)[C@@H](C)O)[C@@H](C)O)C(C)C)C(=O)N[C@@H](C)C(=O)N[C@@H](Cc1c[nH]c2ccccc12)C(=O)N[C@@H](CC(C)C)C(=O)N[C@H](C(=O)N[C@@H](CCCCNC(=O)COCCOCCNC(=O)COCCOCCNC(=O)CC[C@H](NC(=O)CCCCCCCCCCCCCCCCC(=O)O)C(=O)O)C(=O)NCC(=O)N[C@@H](CCCNC(=N)N)C(=O)N[C@@H](CCCCNc1c(NCCCCCN(O)C(=O)CCC(=O)NCCCCCN(O)C(=O)CCC(=O)NCCCCCN(O)C(C)=O)c(=O)c1=O)C(=O)NCC(=O)NCC(=O)N[C@@H](CO)C(=O)N[C@@H](CCCCNc1c(NCCCCCN(O)C(=O)CCC(=O)NCCCCCN(O)C(=O)CCC(=O)NCCCCCN(O)C(C)=O)c(=O)c1=O)C(=O)NCC(=O)NCC(=O)N[C@@H](CO)C(=O)N[C@@H](CCCCNc1c(NCCCCCN(O)C(=O)CCC(=O)NCCCCCN(O)C(=O)CCC(=O)NCCCCCN(O)C(C)=O)c(=O)c1=O)C(=O)O)C(C)C,GLP1R,"agonist, CRE luciferase reporter",BHK cells,"metal-free DFO conjugate, together with: 0% HSA",reference: parent peptide,fold potency loss,7.4
O=C(O)CC[C@H](NC(=O)N[C@@H](CCCCNC(=O)CCCCCCC(=O)NCCCC[C@@H](NC(=O)[C@H](CCC(=O)O)NC(=O)[C@H](CCC(=O)O)NC(=O)CCC(=O)NCCCN1CC[S][Tc]2(=[O])[S]CC[N]2CC1)C(=O)O)C(=O)O)C(=O)O (stereo partly shown) [technetium-99m labelled],"FOLH1 (Homo sapiens, UniProt Q04609)",saturation binding,LNCaP,"1 h, 37 °C",,Bmax,12 ± 0.3 pmol/mg
CCOC(=O)C1=C(CN2CCOCC2)NC(c2nccs2)=NC1c1ccc(F)cc1Br (stereo not shown),"Capsid protein (C, Hepatitis B virus genotype D subtype ayw, UniProt P03146)",immunoblot,"HepG2 expressing HA-HBc, Hepatitis B virus","concentration not given, 3 days, non-toxic concentrations",,intracellular capsid protein level,decreased
CCCCCCCCCCCC(=O)O,"Ppara (Mus musculus, UniProt P23204, F272I)",intrinsic fluorescence quenching,,concentration not given,,binding,no binding
c1ccc(C(NCc2cccnc2)(c2ccccc2)c2ccccc2)cc1,"Potassium voltage-gated channel subfamily KQT member 1, with KCNE1 (KCNQ1, Homo sapiens, UniProt P51787)",IKs,,"100 pM, above +50 mV, with KCNE1",,slope of normalized current vs voltage,2.9 V⁻¹
COCCC(=O)Nc1ccc([C@H]2[C@@H](F)[C@@H](F)C[C@@H](F)[C@H]2F)cc1,,liver microsome stability,rat liver microsomes,1 µM,,hepatic clearance,6.4 mL/min/kg
CC1(C)CC2(C)OC(=O)NC2(C)c2ccccc21 (stereo not shown),"Transcription intermediary factor 1-beta, PHD-bromodomain (TRIM28, Homo sapiens, UniProt Q13263)","binding, affinity selection mass spectrometry",,,reference: other proteins in batch,log fold enrichment,-0.0793
CC[C@H](C)[C@H](NC(=O)[C@H](Cc1ccccc1)NC(=O)[C@H](CCC(=O)O)NC(=O)[C@H](CCCNC(=N)N)NC(=O)[C@H](C)NC(=O)[C@H](C)NC(=O)[C@H](CCC(N)=O)NC(=O)[C@H](CCC(=O)O)NC(=O)[C@H](CCC(=O)O)NC(=O)[C@H](CC(C)C)NC(=O)[C@H](Cc1ccc(O)cc1)NC(=O)[C@H](CO)NC(=O)[C@H](CO)NC(=O)[C@@H](NC(=O)[C@H](CC(=O)O)NC(=O)[C@H](CO)NC(=O)[C@@H](NC(=O)[C@H](Cc1ccccc1)NC(=O)[C@@H](NC(=O)CNC(=O)[C@H](CCC(=O)O)NC(=O)[C@H](C)NC(=O)CCc1cnc[nH]1)[C@@H](C)O)[C@@H](C)O)C(C)C)C(=O)N[C@@H](C)C(=O)N[C@@H](Cc1c[nH]c2ccccc12)C(=O)N[C@@H](CC(C)C)C(=O)N[C@H](C(=O)N[C@@H](CCCNC(=N)N)C(=O)NCC(=O)N[C@@H](CCCNC(=N)N)C(=O)N[C@@H](CCCCNC(=O)COCCOCCNC(=O)COCCOCCNC(=O)CC[C@H](NC(=O)CCCCCCCCCCCCCCCCC(=O)O)C(=O)O)C(=O)NCC(=O)NCC(=O)N[C@@H](CO)C(=O)N[C@@H](CCCCNc1c(NCCCCCN(O)C(=O)CCC(=O)NCCCCCN(O)C(=O)CCC(=O)NCCCCCN(O)C(C)=O)c(=O)c1=O)C(=O)NCC(=O)NCC(=O)N[C@@H](CO)C(=O)N[C@@H](CCCCNc1c(NCCCCCN(O)C(=O)CCC(=O)NCCCCCN(O)C(=O)CCC(=O)NCCCCCN(O)C(C)=O)c(=O)c1=O)C(=O)NCC(=O)NCC(=O)N[C@@H](CO)C(=O)N[C@@H](CCCCNc1c(NCCCCCN(O)C(=O)CCC(=O)NCCCCCN(O)C(=O)CCC(=O)NCCCCCN(O)C(C)=O)c(=O)c1=O)C(=O)O)C(C)C,GLP1R,"agonist, CRE luciferase reporter",BHK cells,"Zr-loaded DFO conjugate, together with: 1% HSA",reference: parent peptide,fold potency loss,2.3
C[C@@H]1CCO[C@H]2Cn3cc(C(=O)NCc4ccc(F)cc4F)c(=O)c(O)c3C(=O)N12,"SLC22A3 (Homo sapiens, UniProt O75751)",transport,"MDCK-II, transfected","50 µM, together with: MPP+ 2 µM",,inhibition,6.56%
Nc1ncnc2c1ncn2[C@@H]1O[C@H](COP(=O)(O)OP(=O)(O)OP(=O)(O)O)[C@@H](O)[C@H]1O,"T1, ssDNA, aptamer",ITC,,,,Kd,701 nM
Nc1ncnc2c1ncn2[C@@H]1O[C@H](CSCC[C@H](N)C(=O)O)[C@@H](O)[C@H]1O,"O-methyltransferase (Sorghum bicolor, UniProt A0A1B6PFV1)",isothermal titration calorimetry,,"concentration not given, apo protein",,ΔH of binding,-3.53 ± 0.622 kcal/mol
Nc1nc2c(ncn2[C@@H]2O[C@H](COP(=O)(O)O)[C@@H](O)[C@H]2O)c(=O)[nH]1,"GUK1 (Homo sapiens, UniProt Q16774)","enzyme activity, NADH-coupled",,"31.25 µM, together with: KCl 50 mM",,reaction velocity,0.0916 µM/s and 0.09 µM/s and 0.0783 µM/s
CCN1CCC[C@H]1CNC(=O)c1c(O)c(Cl)cc(Cl)c1OC,"CMKLR2 (Homo sapiens, UniProt P46091)","β-arrestin recruitment, TANGO luminescence, measured: GPR1",,concentration not given,reference: basal luminescence,log2 fold change,0.051
O=C(NCCc1cccnc1)c1ccc([C@H]2[C@@H](F)[C@@H](F)C[C@@H](F)[C@H]2F)cc1,,hepatocyte stability,cryopreserved mouse hepatocytes,1 µM,,hepatic clearance,55 mL/min/kg
CSc1ccc(C(=O)/C=C/c2cc(C)c(OC(C)(C)C(=O)O)c(C)c2)cc1,"Ppara (Mus musculus, UniProt P23204)","receptor activation, agonist",,species mouse,reference: internal control agonist,Emax,73%
COc1cc(Nc2ncc3c(n2)-c2ccc(Cl)cc2C(c2c(F)cccc2OC)=NC3)ccc1C(=O)O,CLK2,kinase activity,,1 µM,,remaining activity,71%
COc1cc(-c2cncc3c2CN(C)Cc2cc(N4CCNCC4)ccc2-3)cc(OC)c1OC,"Abl2 (Mus musculus, UniProt Q4JIM5)",kinase activity,,"1 µM, mouse enzyme, together with: ATP 10 µM",reference: DMSO control,remaining activity,86%
C[C@H](CCC(C)(C)O)[C@H]1CC[C@H]2[C@@H]3CC=C4C[C@@](C)(O)CC[C@]4(C)[C@H]3CC[C@]12C,"Glutamate NMDA receptor; GRIN1/GRIN2B (GRIN1/GRIN2B, Homo sapiens, UniProt Q05586+Q13224, A652C)",two-electrode voltage clamp,Xenopus oocytes,"concentration not given, with PAM, holding -40 mV, together with: 200 µM MTSEA, 100 µM glutamate",,potentiation by MTSEA,1080 ± 55%

# Some of these lines once more:
SMILES,tested on,assay,test system,setting,how to read,quantity,result
Nc1nc2c(ncn2[C@@H]2O[C@H](COP(=O)(O)O)[C@@H](O)[C@H]2O)c(=O)[nH]1,"GUK1 (Homo sapiens, UniProt Q16774)","enzyme activity, NADH-coupled",,"31.25 µM, together with: KCl 50 mM",,reaction velocity,0.0916 µM/s and 0.09 µM/s and 0.0783 µM/s
